# Results pooled from the literature.
# Target: Serine/threonine-protein kinase DCLK1 (DCLK1, Homo sapiens, UniProt O15075)
# Sequence (O15075 1-740, as in one of the studies): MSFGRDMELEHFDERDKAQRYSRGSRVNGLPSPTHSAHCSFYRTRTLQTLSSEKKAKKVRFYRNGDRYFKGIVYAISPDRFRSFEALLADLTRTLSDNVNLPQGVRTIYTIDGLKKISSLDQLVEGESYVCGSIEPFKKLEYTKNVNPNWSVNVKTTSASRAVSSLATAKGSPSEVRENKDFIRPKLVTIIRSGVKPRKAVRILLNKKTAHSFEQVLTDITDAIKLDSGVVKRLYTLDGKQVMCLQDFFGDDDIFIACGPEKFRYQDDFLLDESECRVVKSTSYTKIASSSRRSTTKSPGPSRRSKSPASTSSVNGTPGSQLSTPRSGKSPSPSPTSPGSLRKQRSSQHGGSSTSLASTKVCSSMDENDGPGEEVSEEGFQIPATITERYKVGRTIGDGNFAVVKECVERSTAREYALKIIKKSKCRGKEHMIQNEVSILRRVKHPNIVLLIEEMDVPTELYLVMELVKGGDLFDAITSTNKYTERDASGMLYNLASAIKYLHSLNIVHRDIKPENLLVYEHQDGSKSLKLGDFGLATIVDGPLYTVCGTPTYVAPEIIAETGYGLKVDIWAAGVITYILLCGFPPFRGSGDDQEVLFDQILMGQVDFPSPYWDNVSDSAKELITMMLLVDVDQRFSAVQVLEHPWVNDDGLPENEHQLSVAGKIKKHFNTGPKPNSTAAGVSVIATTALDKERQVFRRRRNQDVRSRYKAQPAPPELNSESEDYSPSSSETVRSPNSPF
Compound,test,setting,how to read,measurement,result
COc1cc(N2CCN(C)CC2)ccc1Nc1ncc2c(n1)N(C)c1ccccc1C(=O)N2CC(F)(F)F,isothermal titration calorimetry,"200 µM, with: protein 20 µM",,TΔS,0.23 kcal/mol
C=CC(=O)N1CCC(C(=O)NCC(=O)N2CCN(c3nc(-c4cnc(N)nc4C(F)F)nc(N4CCOCC4)n3)CC2)CC1,KINOMEscan,1 µM,,remaining binding,59%
COc1cc(N2CCN(C)CC2)ccc1Nc1nc(N)n(C(=O)NCc2ccccc2S(=O)(=O)C(C)C)n1,enzyme activity,10 µM,baseline: control,remaining activity,1.8%
O=C(NC1CCC1)c1ccc2nc(-c3cccc(NS(=O)(=O)NCCN4CCCCC4)c3)cn2c1,enzyme activity,10 µM,,remaining activity,100%
COc1cc(N2CCN(C)CC2)ccc1Nc1nc(N)n(C(=O)NCc2c(Cl)cccc2Cl)n1,enzyme activity,10 µM,baseline: control,remaining activity,0.4%
C[C@@H](c1ccc(-n2cnc3c(N)ncnc32)cc1)N1CCc2nn(C)c(Cc3ccccc3)c2C1=O,KINOMEscan,0.1 µM,baseline: DMSO control,remaining binding,82%
C1=C/COCc2cc(ccc2OCCN2CCCC2)Nc2nccc(n2)-c2cccc(c2)COC/1,,"concentration not given, gene name DCAMKL1",,percent of control,100%
C=CC(=O)N1CCC(COCC(=O)N2CCN(c3nc(-c4cnc(N)nc4C(F)F)nc(N4CCOC[C@@H]4C)n3)CC2)CC1,KINOMEscan,1 µM,baseline: DMSO control,remaining binding,100%

# For quick reference, copied from above:
Compound,test,setting,how to read,measurement,result
C=CC(=O)N1CCC(C(=O)NCC(=O)N2CCN(c3nc(-c4cnc(N)nc4C(F)F)nc(N4CCOCC4)n3)CC2)CC1,KINOMEscan,1 µM,,remaining binding,59%
